{"data": "Measurements of several laboratories", "note": "Numbered parts are unrelated; each lists some results of a single study."}
{"data": "Series 1", "target": "RNA binding protein fox-1 homolog 2, RRM domain, GST-SBP tag (RBFOX2, Homo sapiens, UniProt O43251-10, residues 100-194)", "method": "RNA Bind-n-Seq", "molecule type": "RNA", "matrix": "in vitro", "concentration": "365 nM", "notes": "natural RNA segment, single round, ends assumed", "reference": "no-protein control", "direction": "higher = stronger binding", "constant ends, left off below": "GGGAGUUCUACAGUCCGACGAUC … UGGAAUUCUCGGGUGCCAA", "Construct (chain)": "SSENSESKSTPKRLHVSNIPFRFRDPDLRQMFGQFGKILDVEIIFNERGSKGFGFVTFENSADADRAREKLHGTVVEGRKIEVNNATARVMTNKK"}
{"Sequence": "CAAAGGUUUAGAACACAUUAUUUUCAAAGACUAAAUCUAAAACCCAGAGUAAACAUCAAUGCUCAGAGUUAGCAUAAUUUGGAGCUAUUCAGGAAUUGCAGAGAAAUGCA", "RBNS enrichment (R)": 2.52}
{"Sequence": "CACAAGGGCCGGCAUCACCAGACCAGCUGAGGACAACUCAGACUGACAGUUGGACAAACAUUGCGACGUUUUCGUUUAAGCAAAUACAGGUGCAUUUAAAAAACACGACU", "RBNS enrichment (R)": 0.336}
{"Sequence": "CAGCCCCCAGAAUGUUCUGGACAUGCACCACCAGCCGGUGGUCCCAAUGUCCACCCCUGCCUCCCCUUCACUGGGGACUGGGGUUUUCGCCCCAUGCUGCAUCGUGUUGU", "RBNS enrichment (R)": 0.498}
{"Sequence": "UGUCUGGAAAAGCACUUUACAGAUGAGAUUCCCUCUCCUCCCCCACCUUCAAGCACCCUGUUCCCUCUUUCUUUCUUUUGUGUUGGAUUUGUUUAAAAACCAAAUAAGCA", "RBNS enrichment (R)": 0.961}
{"Sequence": "CCAGAUGCCCUGGUGGAAUGACCUGCCUCUCUGCCGUUUCUGCCAACGUGUUGGUGCUAUAAGCUGCUUCAAAUACCAGUUUGUCUGUAGUGUGUACUCACCUAAUCACU", "RBNS enrichment (R)": 0.272}
{"Sequence": "AUAUUAUUUGAGCUAUUUAAAGCUUAUUAUAUUUUAGUAUGAACUAAAUGAAGGUUAAAACAUGCUUAAGAAAAAUGCACUGAUUUCUGCAUUAUGUGUACAGUAUUGGA", "RBNS enrichment (R)": 0.346}
{"Sequence": "UGCUAGUGUCGGAGUGUUCUCUGUAACGCGACAGUUCCUUCUGUUGCAAUAGCCCCCCUGCAACACUGCAAUAAUCCUUCAGUGUCUCCCCUGGGCUCAAUUCACUUCCU", "RBNS enrichment (R)": 1.13}
{"Sequence": "CCCACCCCCAAUCCAAAAGGUUCAGAGUCCCCCGAGAUGACACUUCCUCCAGCAUAACCCCAGUUGGCUGACGUGAGCCUAUUCCAUCUGAGGCCAUUCUCUCUUUGGUU", "RBNS enrichment (R)": 0.479}
{"Sequence": "AGAGGCAGCCUGCUGCCUGGAUGCUGGUCUCCCCAGCAUCACUGUUCCCAUGGAGCUCAGGUCAGGCUCUGUAUUCAGACCGAGGGUUUGUGUGAGGCUCAGAGCAAAUG", "RBNS enrichment (R)": 0.275}
{"Sequence": "CCUCCCCUCGCUGCUGGGCCCCAUCUCCACAGGAGAGACUGGUUCAGCUCUAGGGCCUCAGUCUGGAGUGGGAUAGGAGCAGUGAGUGACAAAGCCUCUGAAAGAUGCAU", "RBNS enrichment (R)": 0.255}
{"Sequence": "UACUUUUUAAAAUCGUUCAUAGACUUCUGUAAAAUGCAAGAUAAAUUAAAGUUAUUAUAACAGUAAUUCUUUGAAGUCGAUCUGUCCUUCAGUUUUCUUUUCUACAAUAA", "RBNS enrichment (R)": 0.937}
{"data": "Series 2", "target": "Sal-like protein 4, full length isoform B (SALL4, Homo sapiens, UniProt Q9UJQ4-2, residues 1-616)", "method": "universal PBM", "molecule type": "double-stranded DNA, one strand shown", "matrix": "in vitro", "concentration": "not given", "notes": "8-mer, flanks averaged, mean of replicates", "direction": "higher = stronger binding"}
{"Sequence": "ATGACACA", "E-score": 0.182}
{"Sequence": "GTGCGCCA", "E-score": -0.203}
{"Sequence": "CAATTTTA", "E-score": 0.357}
{"Sequence": "CAAGAAGG", "E-score": -0.0954}
{"Sequence": "AACCATAT", "E-score": 0.307}
{"Sequence": "AATTAGAG", "E-score": 0.126}
{"Sequence": "CTTTCGCA", "E-score": -0.0413}
{"Sequence": "ACTCCACC", "E-score": -0.053}
{"Sequence": "AGATCTAG", "E-score": -0.0352}
{"Sequence": "CCCGGGTC", "E-score": -0.363}
{"data": "Series 3", "target": "Prothrombin, mature alpha-thrombin (F2, Homo sapiens, UniProt P00734)", "method": "aptamer microarray, sandwich", "molecule type": "DNA with 2'F-ANA", "matrix": "in vitro", "concentration": "200 nM", "notes": "whole 15-mer aptamer, many near background", "together with": "Cy3 exosite-II aptamer, 400 nM", "direction": "higher = stronger binding", "sequence": "GGTTGGTGTGGTTGG"}
{"Modification": "2'F-ANA at 1 2 7 8 9 10 12 14", "mean fluorescence intensity [a.u.]": 51.7}
{"Modification": "2'F-ANA at 1 3 5 6 7 9 11 12 14 15", "mean fluorescence intensity [a.u.]": 47.2}
{"Modification": "2'F-ANA at 1 3 4 5 6 7 8 10 12 13", "mean fluorescence intensity [a.u.]": 63.5}
{"Modification": "2'F-ANA at 4 5 7 10 11 13 14 15", "mean fluorescence intensity [a.u.]": 69.5}
{"Modification": "2'F-ANA at 2 3 7 10 12 13 14", "mean fluorescence intensity [a.u.]": 317}
{"Modification": "2'F-ANA at 1 2 4 6 10 11 12 13", "mean fluorescence intensity [a.u.]": 52.6}
{"Modification": "2'F-ANA at 2 3 4 5 6 7 9 10 12 13 14", "mean fluorescence intensity [a.u.]": 48.4}
{"Modification": "2'F-ANA at 3 4 9 12 15", "mean fluorescence intensity [a.u.]": 928}
{"Modification": "2'F-ANA at 1 6 7 8 9 10 11 14", "mean fluorescence intensity [a.u.]": 54.1}
{"Modification": "2'F-ANA at 1 2 4 5 7 8 9 10 11", "mean fluorescence intensity [a.u.]": 47}
{"data": "Other studies, line by line"}
{"Molecule": "PhoQ, residues 284 288 289 292 302 303 TSTLRA", "target": "PhoP, residues 12 14 15 18 19 LQHIR (Escherichia coli, UniProt P23836)", "assay": "Sort-seq, measured: YFP reporter", "system": "E. coli", "setting": "PhoQ-PhoP variant library, together with: 10 µM Mg2+", "scale": "reference: high Mg2+ state, higher = stronger signaling", "quantity": "fold induction", "result": 15.5}
{"note": "Repeated from above (series 1):"}
{"Sequence": "UACUUUUUAAAAUCGUUCAUAGACUUCUGUAAAAUGCAAGAUAAAUUAAAGUUAUUAUAACAGUAAUUCUUUGAAGUCGAUCUGUCCUUCAGUUUUCUUUUCUACAAUAA", "RBNS enrichment (R)": 0.937}
{"Sequence": "CACAAGGGCCGGCAUCACCAGACCAGCUGAGGACAACUCAGACUGACAGUUGGACAAACAUUGCGACGUUUUCGUUUAAGCAAAUACAGGUGCAUUUAAAAAACACGACU", "RBNS enrichment (R)": 0.336}
{"Sequence": "UGUCUGGAAAAGCACUUUACAGAUGAGAUUCCCUCUCCUCCCCCACCUUCAAGCACCCUGUUCCCUCUUUCUUUCUUUUGUGUUGGAUUUGUUUAAAAACCAAAUAAGCA", "RBNS enrichment (R)": 0.961}
